Measurements from different studies.
A part holds a random share of what one study measured. Changes are numbered by the printed parent chain.

Study 1
Target: MAFG, bZIP domain (human)
Technique: DHFR protein complementation
Matrix: yeast
Setting: single substitutions, most at no-binding floor
Relative to: wild-type JUN-FOS pair
Reading: higher = stronger binding
Quantity: binding fitness
Parent: JUN, bZIP domain (human); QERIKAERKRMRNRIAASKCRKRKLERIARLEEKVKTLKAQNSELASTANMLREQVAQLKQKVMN; partner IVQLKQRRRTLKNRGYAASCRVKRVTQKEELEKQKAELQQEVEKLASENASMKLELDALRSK
L45R: -1.37 natural log
L31F: -1.55 natural log
V56Q: -1.36 natural log
R30W: -1.53 natural log
A29P: -1.52 natural log
L31P: -1.49 natural log
L52K: -1.36 natural log
E54W: -1.49 natural log
L31S: -1.49 natural log
M51Q: -1.52 natural log
V35K: -1.34 natural log
I28F: -1.49 natural log
T37M: -1.23 natural log
T37P: -1.47 natural log
Q41P: -1.47 natural log
R53I: -1.54 natural log
L59S: -1.51 natural log
N42M: -1.35 natural log
M51A: -1.29 natural log
V35N: -1.52 natural log
V35G: -1.47 natural log
L45W: -1.55 natural log
E54C: -1.54 natural log

Study 2
Target: CRIPT, C-terminal peptide
Technique: DHFR complementation, deep sequencing
Matrix: yeast
Setting: single substitutions, model-inferred values
Relative to: wild type
Reading: higher = weaker binding
Quantity: binding free energy change
Parent: ERBIN, PDZ domain 1 (human); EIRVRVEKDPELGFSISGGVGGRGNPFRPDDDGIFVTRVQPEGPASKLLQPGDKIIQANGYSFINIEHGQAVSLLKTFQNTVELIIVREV; partner TKNYKQTSV
L49K: 0.743 kcal/mol
V82A: 0.0777 kcal/mol
G21Y: 0.28 kcal/mol
F27N: 1.2 kcal/mol
H68N: 1.33 kcal/mol
D31F: 1.19 kcal/mol
H68A: 1.35 kcal/mol
F27S: 0.932 kcal/mol
V20Q: -0.0951 kcal/mol
G21F: 0.156 kcal/mol
R5S: 0.0987 kcal/mol
I64D: -0.0473 kcal/mol
T37G: 0.934 kcal/mol
I2P: 0.6 kcal/mol
G21S: 0.286 kcal/mol
V20G: 0.303 kcal/mol
Y61D: 0.0698 kcal/mol
E42W: 0.123 kcal/mol
Q70L: 0.206 kcal/mol
A71N: 1.32 kcal/mol
E89W: 0.00801 kcal/mol
I66W: 0.0247 kcal/mol
G43Q: 0.603 kcal/mol
H68W: 1.41 kcal/mol
A71Y: 1.13 kcal/mol

Study 3
Target: Interferon regulatory factor 3, full length, phosphomimetic (IRF3, Homo sapiens, UniProt Q14653, residues 1-427, S386D/S396D/S398D/S402D/T404D/S405D)
Technique: protein-binding microarray
Form: double-stranded DNA, one strand shown
Matrix: in vitro
Concentration: 2540 nM top
Setting: 60-bp whole probe
Added: salmon DNA 0.4 mg/ml
Relative to: random background probes
Reading: higher = stronger binding
Quantity: fitted relative affinity
All sequences stand within: GCCTAGCAC … GTCTTGATTCGCTTGACGCTGCTG
Residues (chain): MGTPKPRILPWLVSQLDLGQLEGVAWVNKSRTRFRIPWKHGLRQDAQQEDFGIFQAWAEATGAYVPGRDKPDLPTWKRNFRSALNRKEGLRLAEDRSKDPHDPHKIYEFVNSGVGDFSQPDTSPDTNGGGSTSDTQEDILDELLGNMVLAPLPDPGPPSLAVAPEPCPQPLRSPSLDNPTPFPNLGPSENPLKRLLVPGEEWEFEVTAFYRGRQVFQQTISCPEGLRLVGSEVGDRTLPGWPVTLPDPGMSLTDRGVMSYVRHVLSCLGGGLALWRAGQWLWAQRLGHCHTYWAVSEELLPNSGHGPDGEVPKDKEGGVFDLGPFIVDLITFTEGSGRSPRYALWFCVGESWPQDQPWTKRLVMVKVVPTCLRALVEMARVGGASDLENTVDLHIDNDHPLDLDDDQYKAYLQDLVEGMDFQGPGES
TCAGGACTGGGGACTGGGTTAGTGCTA: -1.04 z-score
TTAGTTCTCCTTATCCTTTAGTGCTAG: 2.8 z-score
TTAGGTCTCCTACTGCTTTTGTGCTAG: 0.673 z-score
ATGCTACTGCATTTTTTTTTGTGCTAG: -0.327 z-score
GACGGTTTCTGTTCCGGGACGTGCTAG: 6.38 z-score
GGGAGATGACTAAGAGGGGTGTGCTAG: -1.05 z-score
GACGATATCGGGTTTCAAGACGTGCTA: 0.66 z-score
GACGAACTGGGACTGGAGACGTGCTAG: -0.362 z-score
CACGATATCAGTATCGAGACGTGCTAG: 1.22 z-score
ATAGGTATCCTTATCCTTTAGTGCTAG: 5.5 z-score
GACGGGCTCGGTTTCGGGACGTGCTAG: 2.32 z-score
TTTTTTATCAATCATTTTAGTGTGCTA: 1.44 z-score
TACGAACTGGGGTTTCGAGACGTGCTA: 0.389 z-score
TTGGGTCTCGGTATCGGTTAGTGCTAG: 1.9 z-score
TCTCTTTTTGCTTTCTTTATGTGCTAG: 2.24 z-score
TATGGTATGCTCATGACAAAGTGCTAG: -0.161 z-score
CTAGGACTGGGGTTTCGGTTAGTGCTA: 2.36 z-score
GACTGTTCCCTTTTCCTGACGTGCTAG: 5.07 z-score
GACGGTCTCGGACTGGGGAAGTGCTAG: 0.028 z-score
AACGGTTTCCTACTGCTGACGTGCTAG: 5.58 z-score
GACGGTTTCGGTTGCGGGACGTGCTAG: 6.45 z-score
GACTGACTGCTTCTCCTGACGTGCTAG: -0.399 z-score
TTAGATATAAGTTTCGATTAGTGCTAG: 3.08 z-score
TCATGTCCCCCTTTTATACTGTGCTAG: 2.05 z-score
TTAGAACTGAGTATTGATTAGTGCTAG: -0.315 z-score

Study 4
Target: CCND3, cyclin fold, Cln2 fusion (human)
Technique: yeast growth competition, sequencing
Matrix: yeast
Setting: weak parent motif
Relative to: not given
Reading: higher = stronger binding
Quantity: normalised enrichment score
Parent: E2F1 docking peptide (human); PPVKRRLDFETDH
PPVKRRLVFETDH [D8V]: 0.348
PPLKRRLDFETDH [V3L]: 0.0934
PPVKRRLDPETDH [F9P]: -0.00614
PPVKRRLDFEFDH [T11F]: 0.534
PPVKRRLDFSTDH [E10S]: -0.0129
PPVKRRLDFEVDH [T11V]: 0.328
PPVKRKLDFETDH [R6K]: 0.364
PPVKRDLDFETDH [R6D]: -0.156
PPVKSRLDFETDH [R5S]: -0.281
PPVMRRLDFETDH [K4M]: 0.354
PPVKRRLDMETDH [F9M]: 0.121
PPVKRRLDFPTDH [E10P]: -0.0841
PPTKRRLDFETDH [V3T]: 0.543
PPVKRRLDFETWH [D12W]: 0.343
PPVKRRLDFETGH [D12G]: 0.42
PPVKRFLDFETDH [R6F]: 0.599
PPVKRRFDFETDH [L7F]: 0.178
PCVKRRLDFETDH [P2C]: 0.412
PPVKRRTDFETDH [L7T]: 0.00698
PPVKRRLDVETDH [F9V]: 0.0355
PPVSRRLDFETDH [K4S]: 0.678
PTVKRRLDFETDH [P2T]: -0.0215
PPVKRRLDFETVH [D12V]: 0.367
PPVKRRLDFETYH [D12Y]: 0.369
PPVKRRLDFITDH [E10I]: 0.141

Study 5
Target: RNA binding protein fox-1 homolog 2, RRM domain, GST-SBP tag (RBFOX2, Homo sapiens, UniProt O43251-10, residues 100-194)
Technique: RNA Bind-n-Seq
Form: RNA
Matrix: in vitro
Concentration: 365 nM
Setting: natural RNA segment, single round, ends assumed
Relative to: no-protein control
Reading: higher = stronger binding
Quantity: RBNS enrichment (R)
All sequences stand within: GGGAGUUCUACAGUCCGACGAUC … UGGAAUUCUCGGGUGCCAA
Target sequence (chain): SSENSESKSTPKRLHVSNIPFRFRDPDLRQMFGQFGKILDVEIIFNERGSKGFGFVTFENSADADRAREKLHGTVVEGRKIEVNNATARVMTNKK
UCUAUUGUCAGCAUCAUUUUCAUCUGUAAGUCACUACUGGAAUAUAUUUUUCUUUUAAUUUCCAGUGACUUUAGAAUACACACAGUUUUUCCGACUUUUCAAAAAUUUGA: 0.892
CCUCCGUGCCACGCACUGAAGGCCACCCCCACCCACCUGGGAAACUAAGAACUGGAUAUUUUGCCUCAUUCACUUGUACUGUAACAAUGUAUAUAAUUUGGUUGGUAUUU: 0.281
AAAAGAUUGCAUUUACCUUUUCAGUGGUAGAAAAUCAUUUAGUUCUUUGCUAUAAAUGAUUCAGAAUUUUGUCAGAUUUUGUAGGUUGUAUCAUCGUAAGACGGAGUUGC: 0.716
GCCAGCCUGUCAUGCCCAGUCCCUCCCACCAGUGCCCUGGGCCUGUCCUGGGUCCCCUGACACAUUUCUUGCCCUUUUAUACAAUUUUCAAUUAAAACACCUAUUUUGUA: 0.861
UGGUUUUUAGCCCUUUCUCUGCACUACCAACAAGAGAUAAAAUUGUUACUCACACUUAUGUCUUACUGGGUUGCUGGUUUUCAUCGUAACACAGAACGAGGUUAUCUAGG: 0.411
GUCAUGUAUGUGGUUUGGAGGCAGAAUUCUUGAACAUCUUUUGAUGAAGAACAAGGUGGUAUGAUCUUACUAUAUAAGAAAAACAAAACUUCAUUCUUGUGAGUCAUUUA: 0.365
GGACAGACGGCCUCCCUCCUCUCCAUCUGACCGGCACCUGCUGCUUCGGGGCUUAGGCCACCGCUCCCUGUCCCCAGAGGAGAUAGCCCCAGAUGGACUGGAAUGUUGUG: 0.504
UGUAGACGAGUCCCCGACUCUGGGAUACAUGAGGAUCAAUGCCCGUUUUCUCCCCGUGUGCUUUCCUGCAGAAUCCUUGCCUUUCCGUUGUUAGGUUGGGUUUUCUAUAU: 0.291
UGGUUCUUUGCUGUUUCUAUUAACCCACAGCAUUAUUUUAAUAAAUGUUAUAAUACCAACCUACUAACUCUGGACUUUGUCUGUUUAUUAACCUUUAUAUGUUUAAUUAA: 0.496
GCUUUUUUCCUUAUAAGUUUAUAAGUUUGAUUUCAGAUGUUGGAAAUGUGUGCUUUAUAGUGUUUACUAAAGUGACAAGAAAAUAUACCAUUUGACACACUAUAGAUUCC: 0.355
CAAAUAACAUGAAACGUGCUCUGUCGACUCAAUAUUAAAGCCAGGGUGAAGAGUUGCAAACCCCUCUGUCCCUGCAGUACUGCCUGAGUGUGUGGUGAUUCUGGGCUCUC: 0.362
CAAGAGGAUUUCAAAUGCUAACUUUUAGUUUCUUGGGAUUGAUCAAGGCAAGAGAAGUGGCUUUAACCAUGCCAGCCAGAAUGAAGCAUCAUGGGUCCUGAUGGUUUCCC: 0.588

Excerpt of the above (study 2):
L49K: 0.743 kcal/mol
F27N: 1.2 kcal/mol
Y61D: 0.0698 kcal/mol
I66W: 0.0247 kcal/mol
F27S: 0.932 kcal/mol
E89W: 0.00801 kcal/mol
